Measured values of several laboratories.
Compare with care: the assays were run in different laboratories. ± gives the spread as reported.

C[n+]1ccc(/C=N/NC(=O)C(=O)N/N=C/c2cc[n+](C)c3ccccc23)c2ccccc21  ΔTm (hp2 hairpin duplex DNA; FRET melting; 1 µM, with: ds26 10 µM): 0.6 ± 0.3 °C
CN1CCCNC(=O)c2cccc(c2)C(=O)NCCCN(C)CCCNc2cccc3c2C(=O)c2cccc(c2C3=O)NCCC1  log2 fold change (SAS; RNA-seq, item: MT-ATP6 mRNA; 1 µM, 6 h; reference: untreated cells): -1.09
CNS(=O)(=O)Nc1nccc(Cc2c(C)c3ccc(Oc4ncccc4F)cc3oc2=O)c1F  IC50 (HuP-T4; cell viability; 7 days): 0.00908 µM
C=CC(=O)Nc1cccc(Cn2ncc3cnc(Nc4cnn(CCOC)c4)nc32)c1  percent of control (WNK2 human; binding, KINOMEscan; 100 nM; lower = stronger binding): 90%
C[n+]1cc(/C=N/NC(=O)C(=O)N/N=C/c2cc3ccccc3[n+](C)c2)cc2ccccc21  ΔTm (MYC parallel G4 DNA; FRET melting; 1 µM, DNA 0.2 µM, with: duplex DNA competitor 10 µM): 3.6 ± 0.3 °C
Nc1ncc(-c2cc(-c3cnn(CC(F)(F)F)c3)ncc2F)nc1C(=O)NC1CNCC(F)C1 (stereo not drawn)  remaining binding (MUSK; KINOMEscan; 1 µM; reference: DMSO control): 56%
O=[N+]([O-])C(=C\Nc1ccccc1O)/C=N/c1ccccc1O  EC50 (Mus musculus; gene silencing, high-content imaging; LDR reporter GFP cells; confirmation, mean of two runs): 17.8 µM
Cc1ncsc1-c1ccc(C(C)NC(=O)C2CC(O)CN2C(=O)C(NC(=O)CCCCCCCCCCN2CCCC(Nc3ncc(Cl)c(Nc4ccccc4S(=O)(=O)C(C)C)n3)C2)C(C)(C)C)cc1 (stereo not drawn)  log2 fold change (22Rv1; RNA-seq, item: NSUN3 mRNA; concentration not given; reference: DMSO): -1.54
O=C(N/N=C/c1cc[n+](CC2CC2)c2ccccc12)c1ccc2ccc3ccc(C(=O)N/N=C/c4cc[n+](CC5CC5)c5ccccc45)nc3c2n1  ΔTm (hp2 hairpin duplex DNA; FRET melting; 1 µM, with: ds26 10 µM): 0.8 ± 0.1 °C
C=CC(=O)N1[C@H](c2ccc3c(c2)OCO3)c2[nH]c3ccccc3c2C[C@@H]1C(=O)N1CCN(C)CC1  relative co-enrichment (human cyclin E1 N112C-3xFLAG:CDK2; co-IP with TMT proteomics, item: DDX17; concentration not given, Q92841; reference: wild type DMSO): 110%
COC1CN([C@H]2CC[C@H]([C@@]3(C)Oc4c(Cl)cc(C(=O)NCc5c(SC)cc(C)[nH]c5=O)c(C)c4O3)CC2)C1  log2 fold change (RNA-seq, item: SHANK3; human, whole blood; dose not given, 24 h; reference: pretreatment baseline): 1.79
C[n+]1cc(/C=N/NC(=O)c2cccc(C(=O)N/N=C/c3cc4ccccc4[n+](C)c3)n2)cc2ccccc21  ΔTm (hp2 hairpin duplex DNA; FRET melting; 1 µM): 1.2 ± 0.4 °C

Some of these lines once more:
C=CC(=O)N1[C@H](c2ccc3c(c2)OCO3)c2[nH]c3ccccc3c2C[C@@H]1C(=O)N1CCN(C)CC1  relative co-enrichment (human cyclin E1 N112C-3xFLAG:CDK2; co-IP with TMT proteomics, item: DDX17; concentration not given, Q92841; reference: wild type DMSO): 110%
